Published values gathered from unrelated publications.
Every numbered part comes from another study and shows a few of its results, in no order. Changes are numbered by the printed parent chain.

Sample 1 — technique: RNA Bind-n-Seq; form: RNA; medium: in vitro; concentration: 200 nM; notes: whole 134-nt RNA, ends assumed; with: 150 mM LiCl; baseline: input library; direction: higher = stronger binding; endpoint: log2 enrichment; library: 7-deaza-guanosine replaces G
Target: Fragile X messenger ribonucleoprotein 1, C-terminal low-complexity region (Fmr1, Mus musculus, UniProt P35922)
Shared flanks, not repeated: GGGAGUUCUACAGUCCGACGAUC … UGGAAUUCUCGGGUGUCAAGG
CUCAAGUCCUGUGCUACACAUCGUAUGUACCGAAUCGGUGGUUUGGUUUUUGGAAAGUAUUAUGUUACGCCGUUCGGAUCUGCACUUCCA: 0.165
GCAGGAAGUAAAAACAAAUGGAAAUGCUUCGGAUAGUGGCAGGGGUGGGGGUUGCUAAGGAAAGGGUGGGAUGGGAGUGGGUAAAGAGAU: 1.74
UCCUCAAGUCCUGUGCUACACAUCGUAUGUACCGAAUCGGUGGGUGGGUGGGAAAGUAUUAUGUUACGCCGUUCGGAUCUGCACUUCCAG: 1.13
CAAGUCCUGUGCUACACAUCGUAUGUACCGAAUCGGAAAAAGGAAAAAGGAAAGGAAAGUAUUAUGUUACGCCGUUCGGAUCUGCACUUC: -1.13
UCCUGUGCUACACAUCGUAUGUACCGAAUCAAACCCCCCCAAAUUUUUAAACCCCCAAAAAAGUAUUAUGUUACGCCGUUCGGAUCUGCA: 1.92
AGUCCUGUGCUACACAUCGUAUGUACCGAAUCGGGGUUUUUGGGGAAAGGGGAGGGGAAAGUAUUAUGUUACGCCGUUCGGAUCUGCACU: -0.373
UAACUUUAGAGGAGGAUCUGAUGGAUAUGGCAGUGGACGUGGAUUUGGGGAUGGCUAUAAUGGGUAUGGAGGAGGACCUGAAGGUGGCAA: -0.106
AAGUCCUGUGCUACACAUCGUAUGUACCGAAUCGGGGAAAAGGGAAAAGGAAAAGGAAAGUAUUAUGUUACGCCGUUCGGAUCUGCACUU: -0.746
UUAAUAGAUUGAACUUCAAAAAAAAAUUCUUUCUUAAUUUCUGGAUUAAAAAGUAUGCCUGUGUCUUCUAGACCUUUACCAGAAGAUGAU: -2.03
UUCUUGCCAGAGACGAAGAAGCGCAAGAAACGCAAGUCAGAGGAUGGCACGCCAGCGGAGGAUGGCACACCUGCAGCCACCGGCGGGAGC: -1.56
UAACUUUAGAGGAGGAUCUGAUGGAUAUGGCAGUGGACGUGGAUUUGGGGAUGGCUAUAAUGGGUAUGGAGGUGGACCUGGAGGUGGCAA: 0.51

Sample 2 — technique: RNA Bind-n-Seq; form: RNA; medium: in vitro; concentration: 365 nM; baseline: no-protein control; direction: higher = stronger binding; endpoint: RBNS enrichment (R)
Target: RNA binding protein fox-1 homolog 2, RRM domain, GST-SBP tag (RBFOX2, Homo sapiens, UniProt O43251-10, residues 100-194)
Notes: natural RNA segment, single round, ends assumed
Shared flanks, not repeated: GGGAGUUCUACAGUCCGACGAUC … UGGAAUUCUCGGGUGCCAA
Residues (chain): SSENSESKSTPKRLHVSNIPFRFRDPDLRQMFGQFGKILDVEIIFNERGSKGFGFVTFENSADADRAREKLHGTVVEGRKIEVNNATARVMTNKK
CCUGAGCCAUGUGGGAGUCGUGUGAAUGACCAAGGCAGAUGCUAGCAAGUGGUGCUUCCUUCUCAGCACGUCUCUAGGAAGCAUGGACACCCGAGUGUGGCUUUUCUCAA: 29
ACAAGCGAGUCCCUCCAGCUGCUUUAGGAGCCGCUGUGUUCCUGCUGUGUCUUACAGGACUGGAGUGCUGGAUUCGGAGUUAAACGCAUCAAUAUGUAAAAUUGUUGUUU: 0.298
GUGACCCCAGCCCAGCCUAGUGUCACUUUAGGCCUGACGUUUGAGCAACCCUCGGCUCUUGCCAAGGCACCACAGAAUGCACUUGCUCAUGCCCUGUGCCUCUUGAGCAG: 0.189
CUUCAGGGAACAUGCCUGCAUUACAUGAAAUUCCAUGCGCCCAGCUGGUUAUUUCUUGUCUUCCAUCUUAGAAGAAUUGUGUUUCUUCAGGAUACUCUUGUACCUGUGGU: 0.301
AGAUUUCAAGGAAGAGUGAUUAUUUGAUGAAUGCUAUGGGAAUGGCCUCUUCUCUUGGAGUUCUGAGGCCUGGGGAUGCCCAGGAACACUGGGCACCUGCUGCUGUUAGG: 1.39
GAGGCUGCUCCUGCCCCGCGCCGCCUCCGCCGAUCUGUGGACCAGGAUUUGGGUCCCGAGGUGCCCCCUGAGAACGUACUGGGGGCUCUGCUACGCGUCAAACGCCUGGA: 0.622
AACACUGAGACAGGAGUGAGACCAGCUGCGGGUGGGGAGUUUGUGCUCCGCAGGUUACCUCAUGGCAUAUCAAAAAUGGCUUUUUUCUUCACUGCGCUCAAGGAAAAAGU: 0.904
CUUCCCCAGCCCCUCCUCUUGUUUCUUCAUUCAUUCAACAAAAUUUGGCUGGAAUCUGGUUAUUUUGGAUUAAUUCUGCCAAGACAUAAGCCAACUGUCUGCCAGCUCCA: 0.579
AGAGAAUUUAGGCAGUGCAAAGGAGUAUUCUUGUGUGUUUGUGUUGAGUCAUUCUGUCCAUUCCUCCACCAGCUCCUGGGCACCACCUGAGAAACCGUGCUCUCUAAGUU: 0.314
UUUAAGAAAUAACCUCUUACAGUUGUAACCAUUGCGGCUCUGUCCACUUCUCGUUGCUGCUCUGUGGCACAUAUCGGAAGCAGUACAGCGCGCGGCUCUACACGCUUGGG: 0.219
CCGCUAGAGCCCCUCUCCCUACCUUCUGCCUGUUUUCUCCAAUAAAUGCGGAAGGAGUUAAACUUCAUGCCUCUUGUGUCUUUGGGUGUUUGGGAGAAGUAGCAGGGUGG: 0.611
GCUCCGGAGACAGGCACAGCUCUGGCAGAAAGCUCAACGCUAAGGGAUCUCCUUCCCAGUUUCAGCACUUCAGUCAGGGCUGACCAACUUGAAAAGAGCCUCCGACUGUC: 0.232

Sample 3 — technique: RNA Bind-n-Seq; form: RNA; medium: in vitro; concentration: not given; baseline: input RNA pool; direction: higher = stronger binding; endpoint: bound/input enrichment
Target: RING finger protein unkempt homolog, zinc fingers 1-6, GST-SBP tag (UNK, Homo sapiens, UniProt Q9C0B0, residues 30-357)
Chain of UniProt Q9C0B0 (30-357, looked up): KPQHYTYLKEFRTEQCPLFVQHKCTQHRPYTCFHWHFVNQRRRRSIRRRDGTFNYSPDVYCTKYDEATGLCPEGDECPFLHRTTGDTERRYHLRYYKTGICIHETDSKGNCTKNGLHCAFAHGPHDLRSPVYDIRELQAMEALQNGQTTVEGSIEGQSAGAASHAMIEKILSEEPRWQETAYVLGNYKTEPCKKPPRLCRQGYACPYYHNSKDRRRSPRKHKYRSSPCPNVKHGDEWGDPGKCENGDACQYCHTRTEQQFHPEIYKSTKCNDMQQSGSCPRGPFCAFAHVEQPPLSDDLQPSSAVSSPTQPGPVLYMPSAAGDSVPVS
Notes: RNA with constant flanks, human and mouse sites, ends assumed
Shared flanks, not repeated: GGGAGUUCUACAGUCCGACGAUC … CAACAGAGGAUUGAGCAUCA
UGCGUCACAUGGGAAAUAAAUCCUGAGGCCAGGAUCACCAGUGGGGUAGAGUCAUCUUCAUAGUCUCCUGUUAUCCUCCCCCUGAACAAAGAACAAAGUGAGACUGGGAAGCUAGUGUUG: 0.233 ratio
GGAUUCAGGAAAAUGGCUCUCUUAUCACCAUCCUGGUCAUUGCUGGUGUCUUCUGGAUCCACCGGCUUAUCAAGUUUAUCUAUAACAUUUGCUGCUAUUGGGAGAUCCACUCCUUCUACC: 0.634 ratio
CUGUCCGAGAGAACGGGAUCUGCACGGCCGCUGUGUCCCUGCUUUGGAAGUGGUUCAGUCAUGGUUGAGAUUAAGAAGAUCUGUUGCAUUGGUGCGGGCUAUGUCGGCGGACCCACGUGC: 0.335 ratio
UACACAGUAUUGUUCUUGUAAAACUGUGACAUUCCACAGAGCUACUGCCACAAUCCUUUCUUAGGGUGUCAGGCUCUGAAUCUCUCCAAAUGUGCUGUCUUUGGUUCCUCAUGGCUAUUC: 0.168 ratio
GGAGUCUUCAAUAAUAAACACAGUGGCCUGUGGCACAGUGGACUGAUCGACAAAAACCUCAUUGAUUACUUUAUCCCCUUCCUGCCUUUGGAGUACAGACAUGUGAAAAUGUGUGUGAGG: 0.11 ratio
AAUACUUGGCAGUUCAAUUUCAAAUUUAACCUUACAGAGGACAUGUACUCCCAGGAUUCCAUAGAUCUCCUUGCUAACUCAGGACUACAGUUUCAGAAGCAUGAAGAGGAAGGGAUUGAC: 0.368 ratio
AGAUACAGGCAAAGUUGAAUCUUCUGUCUUCCUGGCAAAAAUGGCAUAAAAACUGAGUUGCUAGCUCAAAUUCCUGGGUUUCAUGGAAUUAUGAUUGAGGCACUACCCUUGUAGUGGCCG: 0.222 ratio
GGAGCCAAGAAUCUAAAAGAGAUGGAGACUCUUCAAGAAGUAGGAUUAAGGUACCUGCCUCAUGAAGAGCUUUUCUGCUCCCAGAUCUGGCAACAGAUUACAAGAGAGUUAAUCAAGUAU: 0.134 ratio
AAGAGGAUACAUGAAGUGGCUAUGGGAGAAACAAAAGCCCAAACCAGACCUAGAGGAUCAAGUCAUAAUGGGAGCAUUUUUAGACAAGCCAAAGAUGGAGAAGCAUAAUGCCCAGGGGCA: 0.576 ratio
CACCACCCCAGUCCGGAUCAUUUCUGGCCCCGCUUCCCGGACGCUCUGCGCCCCUUCGUUCCUUGGGAUCAAUUGGAAAACGAGGAUUCCAGCGUGCACAUUUCCCCCCGGCAGAAGCGA: 0.215 ratio
AGUGGAUUUUGUAGCUAUUUAGAAUCCCAGGACUCUGGAUAUCUAUAUUUUUGCUUCAGAUGGCUUUUAAUCAGAUUUAAAAGGGAAUUUAGUUUUCUAGAUAUACUUCGAUUAUGGGAG: 0.811 ratio

Sample 4 — technique: protein binding microarray; form: double-stranded DNA, one strand shown; medium: in vitro; concentration: not given; baseline: not given; direction: higher = stronger binding; endpoint: E-score
Target: Histone acetyltransferase KAT6A, winged helix 2, GST fusion (KAT6A, Homo sapiens, UniProt Q92794, residues 85-181)
Notes: 8-mer, flanks averaged, mean of 2 arrays, mostly near background
Residues (chain): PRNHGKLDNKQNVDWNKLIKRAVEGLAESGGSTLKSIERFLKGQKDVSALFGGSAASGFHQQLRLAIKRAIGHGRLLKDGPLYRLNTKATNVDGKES
ATACCGAA: 0.126
AGCGACGG: -0.00945
CTAAGCCA: -0.148
ACCGAAAC: 0.191
ATACACCG: 0.113
GCCGCTAA: 0.105
ACTCGAGC: 0.00889
ATGTCGAA: 0.0313
AAGCAGTA: -0.00209
AATCTTTA: 0.0655
AGGTTAAG: -0.153
ATGCAACA: -0.00792
ACTAAGGG: -0.111
CATGCCAA: -0.1
AAGTTTCG: 0.0673
CCTGGAGA: 0.13
AAGAAGGT: -0.0124
ACCTCATA: 0.0188
CGTTGACA: -0.0635
CGCTACAA: -0.203
CGTACAAG: -0.107
ATATATCA: -0.024
AAATGTCC: -0.178
CTACATAG: -0.0302
ATAAACCG: -0.107

Sample 5 — technique: universal PBM; form: double-stranded DNA, one strand shown; medium: in vitro; concentration: not given; direction: higher = stronger binding; endpoint: E-score
Target: Sal-like protein 4, full length isoform B (SALL4, Homo sapiens, UniProt Q9UJQ4-2, residues 1-616)
Notes: 8-mer, flanks averaged, mean of replicates
GTTGGCGA: -0.0929
ACCGAAAA: 0.211
ATTCGACG: 0.0338
GGTTGCTA: -0.0448
CGTTGAGC: -0.162
CTCTAAAC: -0.0343
ACAGTACC: -0.0339
CATATGAG: 0.178
ATGGAATC: 0.117
GGCGTCTA: -0.15
ATTCCAAT: 0.237
ACACGGGC: -0.293
CAGAGACG: -0.11
CTCCGGCA: -0.211
ACGAGTCG: -0.168
CAATCATG: 0.121
CATCAACA: 0.116
CGGGTTTA: -0.00106
TCTCGGCA: -0.288
TTGGCCAA: -0.187
ACTCATGG: 0.0611
AACCTCCC: -0.166

Sample 6 — target: CCNB3, cyclin fold, Cln2 fusion (human); technique: yeast growth competition, sequencing; medium: yeast; notes: weak parent motif; baseline: not given; direction: higher = stronger binding; endpoint: normalised enrichment score
Starting sequence: HASPIN docking peptide (human); ASLRSVLFGLMNS
G9A: 0.41
V6A: 0.343
L10A: 0.185
F8A: 0.0991
S5A: 0.47
M11A: 0.666
